# Measured values pooled from the literature.
# Lines come from different studies, so protocols differ. “And” joins repeats or separate records; there may be more than shown. ± marks the error that the study gave.
# UniProt Q15418, sequence (whole entry, looked up): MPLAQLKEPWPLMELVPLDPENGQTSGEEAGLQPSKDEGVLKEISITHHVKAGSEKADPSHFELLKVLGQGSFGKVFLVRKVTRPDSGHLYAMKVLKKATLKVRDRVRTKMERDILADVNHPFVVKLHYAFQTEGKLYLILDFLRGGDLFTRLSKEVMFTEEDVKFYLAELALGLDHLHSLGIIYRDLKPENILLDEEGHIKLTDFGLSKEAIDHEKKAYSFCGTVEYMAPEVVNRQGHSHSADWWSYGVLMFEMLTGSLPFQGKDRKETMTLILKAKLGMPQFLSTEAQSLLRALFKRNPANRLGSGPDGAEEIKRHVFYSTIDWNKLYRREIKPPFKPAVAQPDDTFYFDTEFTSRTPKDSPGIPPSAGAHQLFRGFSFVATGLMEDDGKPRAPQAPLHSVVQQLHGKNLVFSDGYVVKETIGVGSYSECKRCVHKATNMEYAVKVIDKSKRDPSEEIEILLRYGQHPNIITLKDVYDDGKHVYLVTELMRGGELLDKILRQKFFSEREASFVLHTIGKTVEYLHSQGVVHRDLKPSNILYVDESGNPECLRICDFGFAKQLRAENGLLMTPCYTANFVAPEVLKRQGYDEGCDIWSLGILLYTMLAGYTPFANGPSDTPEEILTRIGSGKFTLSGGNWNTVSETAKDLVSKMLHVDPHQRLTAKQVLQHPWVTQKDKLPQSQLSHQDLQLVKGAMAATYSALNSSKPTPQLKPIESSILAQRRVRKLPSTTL
# UniProt Q15831, sequence (whole entry, looked up): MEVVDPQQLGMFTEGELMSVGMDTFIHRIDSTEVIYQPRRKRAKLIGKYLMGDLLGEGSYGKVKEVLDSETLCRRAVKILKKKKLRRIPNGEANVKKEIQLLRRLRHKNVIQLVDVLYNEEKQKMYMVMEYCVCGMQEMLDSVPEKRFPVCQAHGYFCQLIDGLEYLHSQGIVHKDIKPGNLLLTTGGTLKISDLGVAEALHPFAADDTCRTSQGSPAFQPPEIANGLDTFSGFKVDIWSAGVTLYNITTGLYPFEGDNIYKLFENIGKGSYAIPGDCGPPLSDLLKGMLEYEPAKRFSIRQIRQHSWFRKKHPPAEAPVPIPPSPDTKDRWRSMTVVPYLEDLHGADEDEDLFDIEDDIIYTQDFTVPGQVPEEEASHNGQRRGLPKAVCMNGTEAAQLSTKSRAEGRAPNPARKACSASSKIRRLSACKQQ
# UniProt Q16584, sequence (whole entry, looked up): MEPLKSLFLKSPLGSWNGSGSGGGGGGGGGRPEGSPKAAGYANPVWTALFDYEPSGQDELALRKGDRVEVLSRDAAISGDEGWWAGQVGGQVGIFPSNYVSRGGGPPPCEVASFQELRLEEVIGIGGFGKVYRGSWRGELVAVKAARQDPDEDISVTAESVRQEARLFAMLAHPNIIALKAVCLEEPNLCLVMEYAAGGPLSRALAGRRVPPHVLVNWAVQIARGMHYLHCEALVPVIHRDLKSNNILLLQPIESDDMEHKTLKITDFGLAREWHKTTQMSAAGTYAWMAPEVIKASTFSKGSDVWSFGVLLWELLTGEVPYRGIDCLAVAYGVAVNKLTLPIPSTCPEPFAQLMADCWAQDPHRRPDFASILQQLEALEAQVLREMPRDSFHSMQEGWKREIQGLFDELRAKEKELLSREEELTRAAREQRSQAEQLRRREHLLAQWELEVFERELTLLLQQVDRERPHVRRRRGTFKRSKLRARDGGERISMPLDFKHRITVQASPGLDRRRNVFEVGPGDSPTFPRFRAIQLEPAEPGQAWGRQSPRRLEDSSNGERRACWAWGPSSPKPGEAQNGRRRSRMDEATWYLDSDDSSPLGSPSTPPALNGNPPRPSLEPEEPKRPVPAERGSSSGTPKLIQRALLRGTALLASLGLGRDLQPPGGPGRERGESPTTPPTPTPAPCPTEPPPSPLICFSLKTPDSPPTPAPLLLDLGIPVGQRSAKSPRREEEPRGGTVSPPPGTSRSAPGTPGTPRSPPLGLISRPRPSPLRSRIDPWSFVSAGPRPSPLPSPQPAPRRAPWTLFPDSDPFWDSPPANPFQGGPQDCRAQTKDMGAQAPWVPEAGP
# UniProt P51617, sequence (whole entry, looked up): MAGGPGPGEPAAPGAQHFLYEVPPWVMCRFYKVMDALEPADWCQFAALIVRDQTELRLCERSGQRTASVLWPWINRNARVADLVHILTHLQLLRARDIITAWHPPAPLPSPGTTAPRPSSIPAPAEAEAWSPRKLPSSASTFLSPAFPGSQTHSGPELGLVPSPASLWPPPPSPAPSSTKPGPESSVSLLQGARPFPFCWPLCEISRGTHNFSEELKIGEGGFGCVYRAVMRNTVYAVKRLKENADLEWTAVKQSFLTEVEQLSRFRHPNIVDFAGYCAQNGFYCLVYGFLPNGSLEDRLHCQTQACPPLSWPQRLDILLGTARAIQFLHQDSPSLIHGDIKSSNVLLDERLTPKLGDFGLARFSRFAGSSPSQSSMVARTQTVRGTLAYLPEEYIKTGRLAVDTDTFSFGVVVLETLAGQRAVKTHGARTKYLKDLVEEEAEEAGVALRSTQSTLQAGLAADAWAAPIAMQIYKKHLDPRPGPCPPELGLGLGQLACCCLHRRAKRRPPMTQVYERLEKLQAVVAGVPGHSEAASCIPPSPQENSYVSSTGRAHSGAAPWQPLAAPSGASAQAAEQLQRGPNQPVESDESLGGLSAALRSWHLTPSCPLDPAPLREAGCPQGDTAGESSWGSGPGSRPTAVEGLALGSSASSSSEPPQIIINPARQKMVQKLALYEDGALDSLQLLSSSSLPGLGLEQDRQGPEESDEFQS
SMILES,tested on,test,test system,conditions,how to read,measurement,result
CCc1nn(C)c2nc(-c3ccc(C(=O)O)cc3)nc(NCc3ccccc3)c12,Cryptosporidium parvum,,HCT-8,"3 x EC90, 0 h",baseline: DMSO control,parasite number,93.3% and 101% and 96.8% and 109%
CCOC(=O)C1(Cc2ccc([N+](=O)[O-])cc2)Oc2cc(F)ccc2N(Cc2ccc([N+](=O)[O-])cc2)C1=O (stereo not shown),Arabidopsis thaliana,"root length, petri dish germination","Col-0, 1/2 MS medium","50 µg/mL, 7 days, 22 °C, dark",,inhibition,39%
Fc1cccc(COc2ccc(Nc3ncnc4ccc(-c5ccc(N6CCOCC6)cc5)cc34)cc2Cl)c1,Plasmodium falciparum,"parasite growth, SYBR Green fluorescence","C235 (TM91C235), drug-resistant",,,EC50,290 nM
COc1ccccc1-c1n[nH]c2nc(NC3CCN(C(=O)Cc4ccc(F)cc4F)CC3)ncc12,,"bead binding, competition bead pull-down, refers to: LMJF.21.0280",Leishmania donovani extract,10 µM,baseline: vehicle,relative abundance,1.27
CC[C@H](C)CCCCC(=O)N[C@@H](CCN)C(=O)N[C@H](C(=O)N[C@@H](CCN)C(=O)N[C@H]1CCNC(=O)[C@H]([C@@H](C)O)NC(=O)[C@H](CCN)NC(=O)[C@H](CCN)NC(=O)[C@H](CC(C)C)NC(=O)[C@@H](CC(C)C)NC(=O)[C@H](CCN)NC1=O)[C@@H](C)O,Escherichia coli,daily serial passaging,ATCC 8739,"highest sub-MIC, 23 days",baseline: initial MIC,MIC fold change,1.26
c1ccc(Nc2ncnc3ccc(-c4cccc(N5CCOCC5)c4)cc23)cc1,Plasmodium falciparum,"parasite growth, SYBR Green fluorescence","C235 (TM91C235), drug-resistant",,,EC50,4600 nM
CCCCCC[C@H]1C(=O)O[C@H](C)[C@H](NC(=O)c2cccc(NC=O)c2O)C(=O)O[C@@H](C)[C@@H]1OC(=O)CC(C)C,Bovine alphaherpesvirus 1,viral replication,Vero C1008,24 h,,IC50,14 nM
CCOC(=O)C1(Cc2ccccc2)Oc2cc(OC)ccc2N(Cc2ccccc2)C1=O (stereo not shown),Arabidopsis thaliana,"stem length, petri dish germination","Col-0, 1/2 MS medium","50 µg/mL, 7 days, 22 °C, dark",,inhibition,36.4%
CS(C)(=O)=Nc1ccc(-c2ccc(-c3nc4cc(O[C@@H]5CO[C@H]6[C@@H]5OC[C@H]6O)[nH]c4cc3F)cc2)cc1,"RPS6KA1 (Homo sapiens, UniProt Q15418)","enzyme activity, inhibitor",,10 µM,,inhibition,2%
CCOC(=O)C1(Cc2ccc(F)cc2)Oc2cc(F)ccc2N(Cc2ccc(F)cc2)C1=O (stereo not shown),Arabidopsis thaliana,"root length, petri dish germination","Col-0, 1/2 MS medium","200 µg/mL, 7 days, 22 °C, dark",,inhibition,52.9%
O=C1NC(=O)c2c1c1cc(F)c[n+]3c1c1c2c2cc(O)ccc2[n]1[Ru-4]312([N]=C=S)[S+]3CC[S+]1CC[S+]2CC3 (stereo not shown),"IRAK1 (Homo sapiens, UniProt P51617)",enzyme activity,,"100 nM, human enzyme, together with: 10 µM ATP",baseline: untreated,remaining activity,40%
CN(C)[C@H]1C[C@@]23CC[C@@]4(O2)C(=CC[C@]2(C)[C@@H](c5ccc6ccncc6c5)CC[C@H]24)C=C3[C@@H](O)[C@@H]1O,"STK11 (Homo sapiens, UniProt Q15831)","ATP probe labelling, inhibitor, KiNativ profiling",,1 µM,,inhibition,7.1%
COc1ccc(Nc2ncnc3ccc(-c4ccc(S(=O)(=O)N5CCOCC5)cc4)cc23)cc1Cl,Plasmodium falciparum,"parasite growth, SYBR Green",D6,blood stage,,EC50,810 nM
CC(=O)c1c(O)c(C)c(O)c2c1OC1=CC(=O)C(=C(C)NCCCC(=O)OC3OC4OC5(C)CCC6C(C)CCC(C3C)C46OO5)C(=O)C12C (stereo not shown),Plasmodium berghei,,"ANKA GFP, NMRI mouse","oral, 4 x 10 mg/kg, day 4 post infection",,parasitaemia inhibition,99.8%
O=C(O)C(Cl)Cl.OCCN(CCO)CCO,Xanthium sibiricum,,,"15 mg/mL, 21 days, pre-emergence, greenhouse",,herbicidal inhibition,0%
CCOC(=O)C1(Cc2ccccc2)Oc2ccccc2N(Cc2ccccc2)C1=O (stereo not shown),Arabidopsis thaliana,,Col-0,200 mg/mL,,root growth inhibition,inhibited
Fc1cccc(COc2ccc(Nc3ncnc4ccc(-c5cccc(CN6CCCCC6)c5)cc34)cc2Cl)c1,Plasmodium falciparum,"parasite growth, SYBR Green fluorescence","W2, drug-resistant",,,EC50,73 nM
CCOC(=O)C1(Cc2cccc(C(C)C)c2)Oc2cc(F)ccc2N(Cc2cccc(C(C)C)c2)C1=O (stereo not shown),Arabidopsis thaliana,"stem length, petri dish germination","Col-0, 1/2 MS medium","200 µg/mL, 7 days, 22 °C, dark",,inhibition,29.4%
COc1ccccc1-c1n[nH]c2nc(N[C@H]3CC[C@H](NS(=O)(=O)CC(C)C)CC3)ncc12,,"bead binding, competition bead pull-down, refers to: LINJ.28.2870",Leishmania donovani extract,10 µM,baseline: vehicle,relative abundance,1.22
CC(C)(C)C(=O)OCOP(=O)(OCOC(=O)C(C)(C)C)C1CCCN(O)C1=O (stereo not shown),MDA-MB-435,,,,,log GI50,-6.02 log M
Cc1cc(C(=O)Nc2nc3cccc(C)c3n2[C@H]2CCCCN(C(=O)/C=C/CN(C)C)C2)ccn1,Trypanosoma brucei brucei,,2T1 CLK1 overexpressing,"0.625 µM, compound pretreated",baseline: maximum,survival,196% and 194% and 185% and 208%
O=C1NC2(CC2)COc2ncc(F)cc2[C@H]2COCCN2c2ccn3ncc1c3n2,,,"Sprague-Dawley rat, male, serum","oral, 5 mg/kg/day, end of recovery, 4-week subacute toxicity",,serum sodium,145 ± 2 mmol/L
CCOC(=O)C1(Cc2ccc(OC)cc2)Oc2cc(F)ccc2N(Cc2ccc(OC)cc2)C1=O (stereo not shown),Arabidopsis thaliana,"stem length, petri dish germination","Col-0, 1/2 MS medium","200 µg/mL, 7 days, 22 °C, dark",,inhibition,65.4%
CCC1(CC)CC(=O)N(C2CCOc3ccc(C(=O)NC4CC(C)(C)Oc5ccccc54)cc32)C(=N)N1 (stereo not shown),Plasmodium falciparum,parasite growth,CAM3 REV,,,EC50,0.5 ± 0.1 nM
O=S(=O)(c1ccc(-c2ccc3ncnc(Nc4ccc(OCc5cccc(F)c5)c(Cl)c4)c3c2)cc1)N1CCNCC1,Plasmodium falciparum,"parasite growth, SYBR Green fluorescence","W2, drug-resistant",,,EC50,200 nM
CC[C@H](C)[C@H](NC(=O)[C@H](CO)NC(=O)[C@H](Cc1ccc(O)cc1)NC(=O)[C@H](Cc1ccc(O)cc1)NC(=O)[C@H](CC(N)=O)NC(=O)CNC(=O)[C@H](CO)NC(=O)[C@H](Cc1ccc(O)cc1)NC(=O)[C@H](CO)NC(=O)[C@H](CO)NC(=O)[C@H](CC(N)=O)NC(=O)COCCOCCNC(=O)CN1CCN(CC(=O)O)CCN(CC(=O)O)CCN(CC(=O)O)CC1)C(=O)N[C@@H](CC(C)C)C(N)=O [copper-64 labelled],,dynamic PET,"KPC mouse Ptf1a-CreER tdTomato, metastases","intravenous, 4.6 MBq/mouse, 9.5 min, 84 d after tamoxifen",,tissue uptake,14.4 %ID/mL
C=CCN1C(=O)C(CC=C)(C(=O)OCC)Oc2cc(F)ccc21 (stereo not shown),Arabidopsis thaliana,,"Col-0, seed germination, dark","50 µg/mL, 7 days, 22 °C",,stem length inhibition,95.7%
COc1cc(Nc2ncnc3ccc(-c4ccc(S(=O)(=O)N5CCOCC5)cc4)cc23)ccc1OCc1cccc(F)c1,Plasmodium falciparum,"parasite growth, SYBR Green fluorescence","W2, drug-resistant",,,EC50,650 nM
CC(C)[C@H]1NC(=O)C[C@H]2/C=C/CCSSC[C@@H](NC1=O)C(=O)N[C@H](Cc1cccc3ccccc13)C(=O)NCC(=O)O2,"MAP3K11 (Homo sapiens, UniProt Q16584)","enzyme activity, inhibitor",,10 µM,,inhibition,2.6%
O=S(=O)(c1ccc(-c2ccc3ncnc(Nc4ccc(OCc5cccc(Br)c5)c(Cl)c4)c3c2)cc1)N1CCOCC1,Plasmodium falciparum,"parasite growth, SYBR Green fluorescence","C235 (TM91C235), drug-resistant",,,EC50,410 nM
Cc1ccc(NS(=O)(=O)c2c(C(=O)N3CCCCCC3)c(C)n(C)c2C)c(Cl)c1,CV-1,,African green monkey cells,"3.704 µM, 60 (unit not given)",,viability,100% and 92.3%

# Excerpt of the above:
SMILES,tested on,test,test system,conditions,how to read,measurement,result
CC(C)(C)C(=O)OCOP(=O)(OCOC(=O)C(C)(C)C)C1CCCN(O)C1=O (stereo not shown),MDA-MB-435,,,,,log GI50,-6.02 log M
O=C(O)C(Cl)Cl.OCCN(CCO)CCO,Xanthium sibiricum,,,"15 mg/mL, 21 days, pre-emergence, greenhouse",,herbicidal inhibition,0%
CS(C)(=O)=Nc1ccc(-c2ccc(-c3nc4cc(O[C@@H]5CO[C@H]6[C@@H]5OC[C@H]6O)[nH]c4cc3F)cc2)cc1,"RPS6KA1 (Homo sapiens, UniProt Q15418)","enzyme activity, inhibitor",,10 µM,,inhibition,2%
COc1ccccc1-c1n[nH]c2nc(NC3CCN(C(=O)Cc4ccc(F)cc4F)CC3)ncc12,,"bead binding, competition bead pull-down, refers to: LMJF.21.0280",Leishmania donovani extract,10 µM,baseline: vehicle,relative abundance,1.27
